{"data": "Experimental data from different studies", "note": "Every numbered part comes from another study and shows a few of its results, in no order. Several values in a cell are separate wells, animals, samples, runs or records.", "sequence of UniProt Q13705 (whole entry, looked up)": "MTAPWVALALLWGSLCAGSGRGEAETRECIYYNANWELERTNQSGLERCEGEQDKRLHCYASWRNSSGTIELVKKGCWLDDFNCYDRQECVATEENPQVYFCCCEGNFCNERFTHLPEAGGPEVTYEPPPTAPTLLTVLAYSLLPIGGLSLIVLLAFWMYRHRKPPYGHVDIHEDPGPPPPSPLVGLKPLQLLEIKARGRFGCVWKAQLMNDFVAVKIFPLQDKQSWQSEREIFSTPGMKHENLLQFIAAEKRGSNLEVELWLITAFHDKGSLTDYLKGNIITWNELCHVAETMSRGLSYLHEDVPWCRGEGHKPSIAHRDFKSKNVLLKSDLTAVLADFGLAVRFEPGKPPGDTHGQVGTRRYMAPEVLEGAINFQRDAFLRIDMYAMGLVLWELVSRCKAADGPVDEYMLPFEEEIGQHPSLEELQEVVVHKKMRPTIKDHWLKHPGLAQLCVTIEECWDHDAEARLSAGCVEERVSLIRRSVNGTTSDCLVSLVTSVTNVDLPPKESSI", "sequence of UniProt Q96J92 (whole entry, looked up)": "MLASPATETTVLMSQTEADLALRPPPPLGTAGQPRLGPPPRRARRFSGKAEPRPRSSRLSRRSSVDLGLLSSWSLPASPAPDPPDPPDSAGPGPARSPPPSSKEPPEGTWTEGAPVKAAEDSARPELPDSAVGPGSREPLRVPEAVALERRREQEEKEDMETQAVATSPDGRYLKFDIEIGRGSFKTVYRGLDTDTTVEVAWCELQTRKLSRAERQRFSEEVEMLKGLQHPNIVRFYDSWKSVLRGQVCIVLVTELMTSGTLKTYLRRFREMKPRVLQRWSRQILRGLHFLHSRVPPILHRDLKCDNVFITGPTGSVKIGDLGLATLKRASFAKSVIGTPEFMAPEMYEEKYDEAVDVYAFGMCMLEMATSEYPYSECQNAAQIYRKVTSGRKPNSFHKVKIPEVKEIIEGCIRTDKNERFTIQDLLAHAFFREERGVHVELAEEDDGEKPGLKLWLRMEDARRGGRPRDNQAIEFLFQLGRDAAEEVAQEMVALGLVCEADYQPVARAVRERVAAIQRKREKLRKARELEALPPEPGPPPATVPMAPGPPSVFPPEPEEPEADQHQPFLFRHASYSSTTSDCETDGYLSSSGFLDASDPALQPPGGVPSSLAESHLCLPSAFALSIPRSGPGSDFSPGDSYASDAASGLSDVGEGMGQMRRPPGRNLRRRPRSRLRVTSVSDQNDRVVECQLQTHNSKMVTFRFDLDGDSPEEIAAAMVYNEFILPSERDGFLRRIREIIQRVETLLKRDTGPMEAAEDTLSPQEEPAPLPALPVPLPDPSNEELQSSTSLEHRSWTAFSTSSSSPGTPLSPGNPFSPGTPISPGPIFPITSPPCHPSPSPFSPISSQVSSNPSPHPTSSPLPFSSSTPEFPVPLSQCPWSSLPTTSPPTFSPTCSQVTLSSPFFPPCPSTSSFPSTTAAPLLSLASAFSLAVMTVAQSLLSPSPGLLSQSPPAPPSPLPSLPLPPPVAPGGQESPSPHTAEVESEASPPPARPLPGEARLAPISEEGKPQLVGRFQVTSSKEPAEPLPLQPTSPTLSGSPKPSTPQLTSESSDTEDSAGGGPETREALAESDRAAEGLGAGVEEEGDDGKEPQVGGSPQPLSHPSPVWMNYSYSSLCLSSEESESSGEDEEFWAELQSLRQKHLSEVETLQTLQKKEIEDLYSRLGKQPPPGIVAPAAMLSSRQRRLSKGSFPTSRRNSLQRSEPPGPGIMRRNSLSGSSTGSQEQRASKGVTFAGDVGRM", "sequence of UniProt P16591 (whole entry, looked up)": "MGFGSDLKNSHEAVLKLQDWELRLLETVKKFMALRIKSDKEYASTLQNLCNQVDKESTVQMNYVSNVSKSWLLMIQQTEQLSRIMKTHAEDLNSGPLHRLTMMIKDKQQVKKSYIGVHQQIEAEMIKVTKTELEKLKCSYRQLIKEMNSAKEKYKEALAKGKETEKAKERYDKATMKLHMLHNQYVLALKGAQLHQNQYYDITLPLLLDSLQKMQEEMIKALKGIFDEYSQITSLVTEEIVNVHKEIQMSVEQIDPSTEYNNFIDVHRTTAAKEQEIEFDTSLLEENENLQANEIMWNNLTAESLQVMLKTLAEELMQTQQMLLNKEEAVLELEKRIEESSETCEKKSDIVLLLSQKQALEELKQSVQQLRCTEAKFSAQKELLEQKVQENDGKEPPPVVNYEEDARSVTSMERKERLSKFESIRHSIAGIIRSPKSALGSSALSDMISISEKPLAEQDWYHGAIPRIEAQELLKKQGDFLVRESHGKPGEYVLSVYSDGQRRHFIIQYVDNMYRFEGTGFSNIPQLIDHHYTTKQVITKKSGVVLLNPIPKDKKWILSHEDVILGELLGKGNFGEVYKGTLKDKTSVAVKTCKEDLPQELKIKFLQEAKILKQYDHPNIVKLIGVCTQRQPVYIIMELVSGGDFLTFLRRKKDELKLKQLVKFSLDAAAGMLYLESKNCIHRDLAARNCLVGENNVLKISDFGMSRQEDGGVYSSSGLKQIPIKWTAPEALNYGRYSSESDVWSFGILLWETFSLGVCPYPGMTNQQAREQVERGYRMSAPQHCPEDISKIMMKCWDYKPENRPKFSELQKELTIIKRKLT", "sequence of UniProt P19525 (whole entry, looked up)": "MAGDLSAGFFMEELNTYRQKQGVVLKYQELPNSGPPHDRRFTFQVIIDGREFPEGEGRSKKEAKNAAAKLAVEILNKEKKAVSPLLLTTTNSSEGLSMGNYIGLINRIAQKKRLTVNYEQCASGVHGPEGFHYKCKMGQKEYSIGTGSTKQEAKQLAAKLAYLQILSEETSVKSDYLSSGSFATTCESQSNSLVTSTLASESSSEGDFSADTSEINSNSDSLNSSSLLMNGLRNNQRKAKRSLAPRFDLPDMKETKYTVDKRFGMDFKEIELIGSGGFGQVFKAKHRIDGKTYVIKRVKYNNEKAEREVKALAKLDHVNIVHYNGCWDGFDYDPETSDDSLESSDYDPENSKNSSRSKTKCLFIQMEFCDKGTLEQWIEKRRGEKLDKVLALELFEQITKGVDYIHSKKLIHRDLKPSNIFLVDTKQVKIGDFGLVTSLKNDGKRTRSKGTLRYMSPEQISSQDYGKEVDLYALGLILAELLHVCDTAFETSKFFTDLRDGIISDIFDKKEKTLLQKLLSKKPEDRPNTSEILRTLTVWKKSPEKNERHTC", "sequence of UniProt P42684 (whole entry, looked up)": "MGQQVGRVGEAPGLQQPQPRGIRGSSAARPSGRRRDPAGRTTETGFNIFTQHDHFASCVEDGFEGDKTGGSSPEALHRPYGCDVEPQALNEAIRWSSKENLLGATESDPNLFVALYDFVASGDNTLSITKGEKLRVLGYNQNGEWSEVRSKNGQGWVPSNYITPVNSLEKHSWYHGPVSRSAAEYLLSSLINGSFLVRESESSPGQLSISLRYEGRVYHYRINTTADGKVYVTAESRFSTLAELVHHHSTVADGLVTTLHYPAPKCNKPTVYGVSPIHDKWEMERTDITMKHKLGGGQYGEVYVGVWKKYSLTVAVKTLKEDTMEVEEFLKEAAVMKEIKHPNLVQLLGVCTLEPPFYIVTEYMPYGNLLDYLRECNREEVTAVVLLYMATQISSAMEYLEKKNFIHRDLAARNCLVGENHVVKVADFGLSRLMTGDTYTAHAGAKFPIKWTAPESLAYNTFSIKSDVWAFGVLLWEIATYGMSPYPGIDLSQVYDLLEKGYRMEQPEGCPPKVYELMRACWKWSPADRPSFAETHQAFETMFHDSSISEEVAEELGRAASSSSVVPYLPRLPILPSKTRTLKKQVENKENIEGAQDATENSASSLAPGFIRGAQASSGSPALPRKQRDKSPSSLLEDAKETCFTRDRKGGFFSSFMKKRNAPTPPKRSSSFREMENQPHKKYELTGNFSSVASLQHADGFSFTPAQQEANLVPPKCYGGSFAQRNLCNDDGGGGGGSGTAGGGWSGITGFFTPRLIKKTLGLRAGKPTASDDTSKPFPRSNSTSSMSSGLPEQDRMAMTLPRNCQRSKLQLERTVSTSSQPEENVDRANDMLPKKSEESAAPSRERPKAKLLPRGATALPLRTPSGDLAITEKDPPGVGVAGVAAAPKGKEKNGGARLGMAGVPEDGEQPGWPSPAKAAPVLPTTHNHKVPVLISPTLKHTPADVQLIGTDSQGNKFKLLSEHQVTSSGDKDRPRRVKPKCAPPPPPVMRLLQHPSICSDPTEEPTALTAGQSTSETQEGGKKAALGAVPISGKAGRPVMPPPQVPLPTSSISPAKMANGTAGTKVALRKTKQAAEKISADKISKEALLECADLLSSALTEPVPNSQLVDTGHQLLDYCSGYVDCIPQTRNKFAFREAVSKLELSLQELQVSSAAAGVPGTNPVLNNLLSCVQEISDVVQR", "sequence of UniProt O14965 (whole entry, looked up)": "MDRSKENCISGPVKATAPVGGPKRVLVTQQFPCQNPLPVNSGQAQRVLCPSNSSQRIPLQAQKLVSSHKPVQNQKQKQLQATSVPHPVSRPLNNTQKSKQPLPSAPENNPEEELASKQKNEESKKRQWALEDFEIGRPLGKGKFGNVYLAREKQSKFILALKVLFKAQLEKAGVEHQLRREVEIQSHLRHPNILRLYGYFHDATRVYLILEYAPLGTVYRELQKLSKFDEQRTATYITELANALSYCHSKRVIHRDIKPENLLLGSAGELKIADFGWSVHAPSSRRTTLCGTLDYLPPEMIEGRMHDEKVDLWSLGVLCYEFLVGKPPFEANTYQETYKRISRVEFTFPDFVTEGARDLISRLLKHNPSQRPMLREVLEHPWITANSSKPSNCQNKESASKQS"}
{"data": "Block 1", "target": "Serine/threonine-protein kinase 17A (STK17A, Homo sapiens, UniProt Q9UEE5)", "observed": "enzyme activity", "action": "inhibitor", "concentration": "0.5 µM", "relative to": "control", "Target sequence (Q9UEE5 1-414)": "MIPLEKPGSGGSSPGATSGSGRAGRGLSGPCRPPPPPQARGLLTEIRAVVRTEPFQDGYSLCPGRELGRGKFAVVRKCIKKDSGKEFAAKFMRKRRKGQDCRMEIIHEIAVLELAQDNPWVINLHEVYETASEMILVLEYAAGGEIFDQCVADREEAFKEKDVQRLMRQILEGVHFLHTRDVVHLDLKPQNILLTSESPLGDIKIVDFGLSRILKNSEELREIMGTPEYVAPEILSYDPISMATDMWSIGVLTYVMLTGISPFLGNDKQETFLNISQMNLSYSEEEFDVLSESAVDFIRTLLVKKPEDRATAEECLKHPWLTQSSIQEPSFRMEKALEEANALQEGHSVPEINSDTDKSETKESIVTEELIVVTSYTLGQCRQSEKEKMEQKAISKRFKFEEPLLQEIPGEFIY"}
{"Structure (SMILES)": "O=C1c2ccccc2-c2n[nH]c3cccc1c23", "remaining activity [%]": 29.1}
{"Structure (SMILES)": "O=C(NC(NC(=S)Nc1ccc(F)c([N+](=O)[O-])c1)C(Cl)(Cl)Cl)C(c1ccccc1)c1ccccc1 (stereo not drawn)", "remaining activity [%]": 99.8}
{"Structure (SMILES)": "CCOc1nc(NC(=O)Cc2cc(OC)ccc2OC)cc(N)c1C#N", "remaining activity [%]": 102}
{"Structure (SMILES)": "Cc1cn(-c2cc(NC(=O)c3ccc(C)c(Nc4nccc(-c5cccnc5)n4)c3)cc(C(F)(F)F)c2)cn1", "remaining activity [%]": 98.9}
{"Structure (SMILES)": "Nc1cccc(-c2cc3c(Oc4cccc(O)c4)ncnc3[nH]2)c1", "remaining activity [%]": 93.7}
{"Structure (SMILES)": "COc1cc2c(cc1OC)-c1[nH]nc(Nc3cccc(F)c3)c1C2", "remaining activity [%]": 87}
{"Structure (SMILES)": "c1ccc(-c2[nH]ncc2-c2ccnc3ccccc23)nc1", "remaining activity [%]": 117}
{"Structure (SMILES)": "Cc1cc2ncc(-c3ccccc3)nc2cc1C", "remaining activity [%]": 80}
{"Structure (SMILES)": "c1ccc(-c2cnc(Nc3ccc(OCCN4CCCC4)cc3)s2)cc1", "remaining activity [%]": 66.2}
{"Structure (SMILES)": "O=C1C(Cl)=C(N2C(=O)CCC2=O)C(=O)c2ccccc21", "remaining activity [%]": 101}
{"Structure (SMILES)": "N#C/C(=C\\c1ccc(O)c(O)c1)C(=O)NCc1ccccc1", "remaining activity [%]": 98.8}
{"Structure (SMILES)": "CCN(CC)C(=O)c1ccc(Nc2nc(OCC3CCCCC3)c3[nH]cnc3n2)cc1", "remaining activity [%]": 59.8}
{"Structure (SMILES)": "N#Cc1c(NC(=O)c2cccc3ccccc23)sc2c1CCCC2", "remaining activity [%]": 104}
{"Structure (SMILES)": "Cc1nc2cc3nc(-c4cccs4)cnc3cc2n1C", "remaining activity [%]": 80.5}
{"Structure (SMILES)": "C[C@@H]1CCN(C(=O)CC#N)C[C@@H]1N(C)c1ncnc2[nH]ccc12", "remaining activity [%]": 106}
{"Structure (SMILES)": "COc1cc2ncnc(Nc3ccc(O)c(Br)c3)c2cc1OC", "remaining activity [%]": 72.3}
{"Structure (SMILES)": "COc1cc2ncnc(Nc3cccc(Cl)c3)c2cc1OC", "remaining activity [%]": 95.4}
{"Structure (SMILES)": "CN([C@@H](Cc1ccc(OS(=O)(=O)c2cccc3cnccc23)cc1)C(=O)N1CCN(c2ccccc2)CC1)S(=O)(=O)c1cccc2cnccc12", "remaining activity [%]": 104}
{"Structure (SMILES)": "CN(C)C[C@H]1CCn2c(c(C3=C(c4cn(C)c5ccccc45)C(=O)NC3=O)c3ccccc32)C1", "remaining activity [%]": 87.6}
{"data": "Block 2", "SMILES": "Cc1cc(-n2nc(Cc3cc(F)cc(C(F)(F)F)c3)nc2C)ccc1C(N)=O", "method": "competition with immobilised ligand", "concentration": "1 µM"}
{"target": "BLK (Homo sapiens, UniProt P51451)", "observed": "cell-free assay", "remaining binding": "100%"}
{"target": "EGFR (Homo sapiens, UniProt P00533, A750P/del747-749)", "observed": "cell-free assay", "remaining binding": "100%"}
{"target": "EGFR (Homo sapiens, UniProt P00533, del747-752/P753S)", "observed": "cell-free assay", "remaining binding": "83%"}
{"target": "DDR2 (Homo sapiens, UniProt Q16832)", "observed": "cell-free assay", "remaining binding": "100%"}
{"target": "EGFR (Homo sapiens, UniProt P00533, L858R/T790M)", "observed": "cell-free assay", "remaining binding": "90%"}
{"target": "EIF2AK2 (Homo sapiens, UniProt P19525)", "observed": "cell-free assay", "remaining binding": "62%"}
{"target": "FER (Homo sapiens, UniProt P16591)", "observed": "cell-free assay", "remaining binding": "79%"}
{"target": "WNK4 (Homo sapiens, UniProt Q96J92)", "observed": "cell-free assay", "remaining binding": "100%"}
{"target": "ABL2 (Homo sapiens, UniProt P42684)", "observed": "cell-free assay", "remaining binding": "100%"}
{"target": "RIPK4 (Homo sapiens, UniProt P57078)", "observed": "cell-free assay", "remaining binding": "95%"}
{"target": "FLT3 (Homo sapiens, UniProt P36888, D835Y)", "observed": "cell-free assay", "remaining binding": "100%"}
{"target": "HIPK3 (Homo sapiens, UniProt Q9H422)", "observed": "cell-free assay", "remaining binding": "100%"}
{"target": "Aurora kinase A (AURKA, Homo sapiens, UniProt O14965)", "observed": "cell-free assay", "remaining binding": "99%"}
{"target": "ACVR2B (Homo sapiens, UniProt Q13705)", "observed": "binding", "remaining binding": "100%"}
{"target": "Myosin-IIIb (MYO3B, Homo sapiens, UniProt Q8WXR4)", "observed": "binding", "remaining binding": "100%"}
{"data": "Block 3", "target": "Sal-like protein 4, full length isoform B (SALL4, Homo sapiens, UniProt Q9UJQ4-2, residues 1-616)", "method": "universal PBM", "molecule type": "double-stranded DNA, one strand shown", "matrix": "in vitro", "concentration": "not given", "notes": "8-mer, flanks averaged, mean of replicates", "direction": "higher = stronger binding", "Construct (chain)": "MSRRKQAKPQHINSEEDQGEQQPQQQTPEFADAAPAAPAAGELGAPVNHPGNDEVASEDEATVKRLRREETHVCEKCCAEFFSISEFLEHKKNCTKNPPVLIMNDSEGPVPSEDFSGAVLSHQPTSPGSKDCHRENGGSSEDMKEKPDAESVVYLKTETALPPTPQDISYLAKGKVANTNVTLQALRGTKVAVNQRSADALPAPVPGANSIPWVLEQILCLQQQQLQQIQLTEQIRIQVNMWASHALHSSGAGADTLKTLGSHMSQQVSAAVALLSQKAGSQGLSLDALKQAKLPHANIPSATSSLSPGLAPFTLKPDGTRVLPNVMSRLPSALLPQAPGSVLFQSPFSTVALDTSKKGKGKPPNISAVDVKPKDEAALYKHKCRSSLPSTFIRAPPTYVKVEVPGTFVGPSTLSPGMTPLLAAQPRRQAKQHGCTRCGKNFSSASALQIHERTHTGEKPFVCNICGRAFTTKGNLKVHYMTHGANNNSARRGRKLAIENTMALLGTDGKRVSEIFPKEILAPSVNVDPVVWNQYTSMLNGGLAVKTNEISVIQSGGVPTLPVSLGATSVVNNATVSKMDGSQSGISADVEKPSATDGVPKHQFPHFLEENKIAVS"}
{"Oligonucleotide": "CTAAGCGC", "E-score": -0.189}
{"Oligonucleotide": "ACTTCCAC", "E-score": -0.131}
{"Oligonucleotide": "CTCCACCA", "E-score": -0.232}
{"Oligonucleotide": "AACTGAAG", "E-score": 0.0991}
{"Oligonucleotide": "CTATTGCC", "E-score": 0.0179}
{"Oligonucleotide": "CCTTCCAA", "E-score": -0.0322}
{"Oligonucleotide": "CGCATACC", "E-score": 0.0139}
{"Oligonucleotide": "GCAATGCC", "E-score": -0.118}
{"data": "Other studies, line by line"}
{"SMILES": "CC[C@@H](C)c1nc2cc(Nc3ccnc4ccc(S(=O)(=O)C(C)C)cc34)ccc2s1.Cl", "tested on": "L929", "test": "caspase activity, Ac-DEVD-pNA absorbance", "setting": "50 µM, 0 h", "how to read": "higher = more activity", "quantity": "caspase-3 activity", "result": "0.005 a.u. and -0.0035 a.u. and 0.007 a.u. and 0.0075 a.u. and 0.011 a.u."}
{"SMILES": "CC(C)(C)c1cnc(CSc2cnc(NC(=O)C3CCN(CCCCSc4cccc5c4C(=O)N(C4CCC(=O)NC4=O)C5=O)CC3)s2)o1 (stereo not drawn)", "tested on": "HH", "test": "CCK-8", "setting": "50 nM", "quantity": "viability", "result": "104%"}
{"SMILES": "COc1ccc(-c2c(Nc3ccccn3)[nH]c3c(C4=CCCCC4)c(-c4ccccc4)nn3c2=O)cc1", "test system": "cancer patients, plasma", "setting": "oral, 400 mg, cycle 0 day -3, single dose", "quantity": "AUC(0-inf), geometric mean", "result": "33900 ng·h/mL"}
{"note": "For quick reference, copied from above (block 2):"}
{"target": "FER (Homo sapiens, UniProt P16591)", "observed": "cell-free assay", "remaining binding": "79%"}
{"target": "WNK4 (Homo sapiens, UniProt Q96J92)", "observed": "cell-free assay", "remaining binding": "100%"}
{"target": "ABL2 (Homo sapiens, UniProt P42684)", "observed": "cell-free assay", "remaining binding": "100%"}
{"target": "RIPK4 (Homo sapiens, UniProt P57078)", "observed": "cell-free assay", "remaining binding": "95%"}
